Experimental data from different studies.
Numbered parts are unrelated; each lists some results of a single study. Changes are numbered by the printed parent chain.

Set 1 — technique: RNA Bind-n-Seq; molecule type: RNA; sample: in vitro; concentration: not given; relative to: input RNA pool; reading: higher = stronger binding
Target: RING finger protein unkempt homolog, zinc fingers 1-6, GST-SBP tag (UNK, Homo sapiens, UniProt Q9C0B0, residues 30-357)
Setting: RNA with constant flanks, human and mouse sites, ends assumed
Construct (chain): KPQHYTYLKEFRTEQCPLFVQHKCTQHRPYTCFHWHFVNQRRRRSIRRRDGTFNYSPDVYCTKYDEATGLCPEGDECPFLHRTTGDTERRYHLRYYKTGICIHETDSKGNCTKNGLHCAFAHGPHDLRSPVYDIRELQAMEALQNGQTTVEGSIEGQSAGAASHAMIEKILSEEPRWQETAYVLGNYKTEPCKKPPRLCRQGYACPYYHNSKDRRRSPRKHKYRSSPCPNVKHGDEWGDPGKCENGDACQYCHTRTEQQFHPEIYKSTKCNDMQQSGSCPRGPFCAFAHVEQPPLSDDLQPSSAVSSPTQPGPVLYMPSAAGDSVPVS
Strand	bound/input enrichment [ratio]
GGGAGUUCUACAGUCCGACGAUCACCUGAGGACAUUCUGAGACUUCCUUUCUUCCAUUUUUUUUUUUUUUAAAGAGCCUGUGAUAGUUGCUGUGGGCAGCCAGUUCCUGGGGCUUCCUCUUGGGCCCCCUGCACUCGGUCUCCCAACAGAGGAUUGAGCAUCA	0.863
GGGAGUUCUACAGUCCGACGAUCCGGCUGGACGGAGGGCCUGUUAUGAACGCAGGCCACCCAAUGGGUGUGAACUCAGAUCCUUUCCUUAUGGCAGCAGGUUCUCUUGGUGGAAACCUGGCUCCAUUUCCAAGGAAUGCAGCUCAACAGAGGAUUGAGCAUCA	0.0456
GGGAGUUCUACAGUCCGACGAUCCAUCCAUUAUCUAUCUCCAUUUUCCAUUAUGGUACCUCUCAGAAGAGUGAGAGAGAGCUAUUAGAGAUUGUGAAGAAGAAUUUCGAUCUCCGCCCUGGGGUCAUUGUCAGGGAUCUGGAUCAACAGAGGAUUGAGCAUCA	0.145
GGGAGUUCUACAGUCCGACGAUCAUGUUAAGCCAUUCUUGAUUGGACCUCAUAGCUUAUUUUAGUUAAUCUUUUUUUUGUCUUUUAGCCUUACCACCUUUUAAAAAAUUUGUUAUUCUCCAGAAACAGUAAAUAGGUGAGUAGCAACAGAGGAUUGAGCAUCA	352
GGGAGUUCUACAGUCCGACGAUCUCUGACAGGAAUAUAGUACUGUACGAUAUGAGGCAAGCUACUCCUUUGAAAAAGGUUAUCUUAGAUAUGAGAACAAAUACAAUCUGUUGGAACCCUAUGGAAGCUUUCAUUUUUACAGCACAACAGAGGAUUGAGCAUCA	0.56
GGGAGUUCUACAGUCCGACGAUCGGCAGUGUCCACCCCUCUGAUGUGUUGGAUAUGCCUGUGGAUCCCAACGAACCCACCUAUUGCCUUUGUCACCAGGUCUCCUAUGGAGAGAUGAUUGGCUGUGACAACCCUGAUUGUUCCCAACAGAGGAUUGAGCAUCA	0.16
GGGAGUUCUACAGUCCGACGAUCUUGGAAACCAGUGCUAAGAACGCAACGAAUGUAGAACAGUCUUUCAUGACGAUGGCAGCUGAGAUUAAAAAGCGAAUGGGUCCUGGAGCUACAGCUGGUGGUGCCGAGAAGUCCAAUGUUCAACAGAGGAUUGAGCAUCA	0.178
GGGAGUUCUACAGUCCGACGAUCAAGAUGGACAACAGUGUUUUUCAUUGGUUUGUAUCAUUACCAUAUCAUUCCUUUUGCUUAAUAAGCAUUCUUGCUUUGUAACUCUGACUCCUUUUCUCAUUUCUAUAAAGCACAUGUUAUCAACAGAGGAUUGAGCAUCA	0.131
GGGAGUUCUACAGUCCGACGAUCAAGAAAGAGCAUGCAGCUAUCAUUCUUUGGAACACUACAUCUUGGAAACAGGUGCAGAAUUUAGUUUUCCACAGUUUGACAGUCACGCAGAUGGCCUUCUCACCUAAUGAGAAGUUCUUACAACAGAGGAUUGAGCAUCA	0.133
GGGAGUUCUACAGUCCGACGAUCUUCACAUUUGGAAGUUUUUCUAAAGGACAACUGGGCAGACCAAUUUUGGAUGUGCCAUAUUGGAAUGCAAAGCCAGCUCCCAUGCCUAACAUUGGAUCAAAAUAUGGAAGAAAAGCUACUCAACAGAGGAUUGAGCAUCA	0.162
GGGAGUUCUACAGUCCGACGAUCUUUUUCUUGUGUAUACAAGUAUAUAUUUUUGUUUGACGCGGACUAAAUCAUUUUCAUUUAAUUUCCGGUAAACAAAACCCACGCGAAUGGGCACUUGUACCCGAUCAUAAUAAAAAUGGACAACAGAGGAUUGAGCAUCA	0.283

Set 2 — technique: protein binding microarray; molecule type: double-stranded DNA, one strand shown; sample: in vitro; concentration: not given; relative to: not given; reading: higher = stronger binding
Target: Histone acetyltransferase KAT6A, winged helix 2, GST fusion (KAT6A, Homo sapiens, UniProt Q92794, residues 85-181)
Setting: 8-mer, flanks averaged, mean of 2 arrays, mostly near background
Construct (chain): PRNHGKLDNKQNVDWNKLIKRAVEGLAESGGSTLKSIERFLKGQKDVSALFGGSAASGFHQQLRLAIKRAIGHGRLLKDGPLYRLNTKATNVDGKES
Strand	E-score
AAATACAC	-0.182
CCAGGTTA	-0.00162
GCCTGCAA	0.151
AGTCGGAA	-0.0882
AGGCGCGC	0.0795
CAATCGAA	0.0965
ACCTAAAT	-0.0825
AATATAGC	0.0913
CGTAATTC	-0.122
CACGCGCA	0.108
AAAGGAAG	-0.00463
CAAAGGAG	0.0259
CTTCCTAA	-0.00821
CCGGTACG	-0.127
GGAGATAA	0.0475
ATAAATGA	-0.00164
CGGATGAC	0.0513
CCCGGTCA	0.0261
CTTCCGCA	0.137
GTCTGGTA	-0.0894
CATCGGCC	0.0229
TGAGTTAA	0.00818

Set 3 — technique: universal PBM; molecule type: double-stranded DNA, one strand shown; sample: in vitro; concentration: not given; reading: higher = stronger binding
Target: Sal-like protein 4, full length isoform B (SALL4, Homo sapiens, UniProt Q9UJQ4-2, residues 1-616)
Setting: 8-mer, flanks averaged, mean of replicates
Strand	E-score
ACCCTGAA	-0.00688
ACAACGCT	0.0824
ATGACTAA	0.165
AACGTGGC	-0.112
CGCTTAAG	-0.0926
AGTGTTTC	-0.0269
AACGTGTC	-0.0394
AGCGCCAG	-0.202
CATCAGTC	-0.139
GAACAAAC	0.119
AATGACCA	0.0558
ATATGCTA	0.229
CACGCGTA	-0.048
GTGTTTAA	0.162
GCGGCTAA	-0.048
AATCACGA	0.108
CTAATGGA	-0.00348
CATATCGG	0.192
ACACAAAG	0.106
AATAGAAG	0.141
CAAGTTTA	0.0909
CACCGGTG	-0.273
AGTCAACC	-0.17

Set 4 — target: CCNA2, cyclin fold, Cln2 fusion (human); technique: yeast growth competition, sequencing; sample: yeast; setting: strong parent motif; relative to: not given; reading: higher = stronger binding
Starting sequence: ORC1 docking peptide (human); PRARKRLELGNLG; partner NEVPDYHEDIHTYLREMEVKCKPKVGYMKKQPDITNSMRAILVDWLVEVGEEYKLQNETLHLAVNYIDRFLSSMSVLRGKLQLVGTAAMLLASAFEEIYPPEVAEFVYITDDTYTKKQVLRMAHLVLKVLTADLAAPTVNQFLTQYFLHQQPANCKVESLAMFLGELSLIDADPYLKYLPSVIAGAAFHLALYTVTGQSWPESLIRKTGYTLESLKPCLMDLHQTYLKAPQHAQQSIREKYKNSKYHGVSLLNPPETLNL
Variant	normalised enrichment score
N11V	4.91
K5E	-0.0286
L12N	4.65
P1R	4.49
P1L	3.82
L9W	5.6
P1H	3.7
G10Q	3.79
N11G	5.63
N11F	4.79
P1G	3.83
R2H	4.29
L9K	0.747
E8Y	4.13
N11W	3.86
A3V	2.89
K5Q	2.13
L7M	1.46
G10T	4.12
R6Q	2.54
L7I	2.4
R6D	0.712
N11E	5.1
L7C	0.826
E8F	5.07

Set 5 — target: CDC34 UBC core domain (UniProt P49427); technique: yeast two-hybrid; sample: yeast; setting: mostly zero background; relative to: not given; reading: higher = stronger interaction
B1: RING1 RING domain (UniProt Q06587); chain SPRSLHSELMCPICLDMLKNTMTTKECLHRFCSDCIVTALRSGNKECPTCRKKLVSKRSLR
B2: BFAR RING domain (UniProt Q9NZS9); chain GPQISVSEFSCHCCYDILVNPTTLNCGHSFCRHCLALWWASSKKTECPECREKWEGFPKVS
B3: ZMYND11 RING domain (UniProt Q15326); chain DEIDWETENHDWYCFECHLPGEVLICDLCFRVYHSKCLSDEFRLRDSSSPWQCPVCRSIKKKNTNKQEM
B4: HLTF RING domain (UniProt Q14527); chain LILSSGSDEECAICLDSLTVPVITHCAHVFCKPCICQVIQNEQPHAKCPLCRNDIHEDNLLE
B5: RNF186 RING domain (UniProt Q9NXI6); chain HSGSTECDLECLVCREPYSCPRLPKLLACQHAFCAICLKLLLCVQDNTWSITCPLCRKVTAVPGGLI
B6: MARCHF1 RING domain (UniProt Q8TCQ1); chain TAPRSQSRLSVCPSTQDICRICHCEGDEESPLITPCRCTGTLRFVHQSCLHQWIKSSDTRCCELCKYDFIMETKLKPLRKWE
B7: RUFY1 RING domain (UniProt Q96T51); chain QALKGHAWLKDDEATHCRQCEKEFSISRRKHHCRNCGHIFCNTCSSNELALPSYPKPVRVCDSCHTLLLQRCSSTAS
B8: RNF6 RING domain (UniProt Q9Y252); chain NSIDSELGKICSVCISDYVTGNKLRQLPCMHEFHIHCIDRWLSENCTCPICRQPVLGSNIAN
B9: MID2 RING domain (UniProt Q9UJV3); chain KMETLESELTCPICLELFEDPLLLPCAHSLCFSCAHRILVSSCSSGESIEPITAFQCPTCRYVISLNHRGL
B10: TRIM11 RING domain (UniProt Q96F44); chain LSTNLQEEATCAICLDYFTDPVMTDCGHNFCRECIRRCWGQPEGPYACPECRELSPQRNLRP
Target sequence (chain): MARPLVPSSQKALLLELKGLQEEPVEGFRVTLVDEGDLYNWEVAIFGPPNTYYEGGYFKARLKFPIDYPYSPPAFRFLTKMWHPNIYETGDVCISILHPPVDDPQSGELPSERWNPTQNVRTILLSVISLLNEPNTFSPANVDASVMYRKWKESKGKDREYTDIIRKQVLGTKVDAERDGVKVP
Sequence	lacZ reporter activity
B1 (RING1 RING domain)	0
B2 (BFAR RING domain)	0
DDVLTKDAGECVICLEELLQGDTIARLPCLCIYHKSCIDSWFEVNRSCPEHPAD (ZNRF1 RING domain (UniProt Q8ND25))	0
B3 (ZMYND11 RING domain)	0
B4 (HLTF RING domain)	0
ASEEEFQFLRCQQCQAEAKCPKLLPCLHTLCSGCLEASGMQCPICQAPWPLGADTP (PML RING domain (UniProt P29590))	0
B5 (RNF186 RING domain)	0
B6 (MARCHF1 RING domain)	0
B7 (RUFY1 RING domain)	0
LEALSSDFLACKICLEQLRAPKTLPCLHTYCQDCLAQLADGGRVRCPECRETVPVPPEGV (TRIM56 RING domain (UniProt Q9BRZ2))	0
B8 (RNF6 RING domain)	0
EIKEYKARLTCPCCNTRKKDAVLTKCFHVFCFECVRGRYEARQRKCPKCNAAFGAHDFHR (RNF40 RING domain (UniProt O75150))	0
B9 (MID2 RING domain)	0
FAEQPSVKLCCQLCCSVFKDPVITTCGHTFCRRCALKSEKCPVDNVKLTVVVNNI (TRAF7 RING domain (UniProt Q6Q0C0))	0
B10 (TRIM11 RING domain)	0

A few entries again (set 4):
Variant	normalised enrichment score
L12N	4.65
P1R	4.49
P1L	3.82
L9W	5.6
P1H	3.7
G10Q	3.79
N11G	5.63
N11F	4.79
P1G	3.83
R2H	4.29
L9K	0.747
E8Y	4.13
N11W	3.86
A3V	2.89
K5Q	2.13
L7M	1.46
